# Assay results gathered from unrelated publications.
# Every numbered part comes from another study and shows a few of its results, in no order. Positions count from the first letter of the parent shown.

# Block 1
# Target: Interferon regulatory factor 3, full length, phosphomimetic (IRF3, Homo sapiens, UniProt Q14653, residues 1-427, S386D/S396D/S398D/S402D/T404D/S405D)
# UniProt Q14653, sequence (whole entry, unmodified, looked up): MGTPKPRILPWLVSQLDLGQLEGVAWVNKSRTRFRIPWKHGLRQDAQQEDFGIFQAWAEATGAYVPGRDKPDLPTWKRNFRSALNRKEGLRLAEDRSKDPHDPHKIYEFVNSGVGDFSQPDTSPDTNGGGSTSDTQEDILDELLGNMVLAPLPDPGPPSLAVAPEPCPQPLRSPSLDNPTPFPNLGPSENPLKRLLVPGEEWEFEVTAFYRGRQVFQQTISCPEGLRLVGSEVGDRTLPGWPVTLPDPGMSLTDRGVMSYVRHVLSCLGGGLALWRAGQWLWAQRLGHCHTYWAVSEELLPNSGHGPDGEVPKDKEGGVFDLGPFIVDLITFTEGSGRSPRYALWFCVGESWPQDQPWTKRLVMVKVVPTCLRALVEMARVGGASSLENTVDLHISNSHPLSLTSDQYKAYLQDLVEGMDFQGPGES
# Method: protein-binding microarray
# Molecule type: double-stranded DNA, one strand shown
# Medium: in vitro
# Tested at: 2540 nM top
# Notes: 60-bp whole probe
# Added: salmon DNA 0.4 mg/ml
# Reference: random background probes
# Reading: higher = stronger binding
# Constant ends, left off below: GCCTAGCAC … GTCTTGATTCGCTTGACGCTGCTG
Sequence,fitted relative affinity
TCACTTTTGCTTGTTCTTACTGTGCTA,1.15 z-score
TGTTTTTGCTTTCTTTTTGCGTGCTAG,3.27 z-score
TTAGAACTGAGTAACGATTAGTGCTAG,-0.295 z-score
GACGACTTCAGACTGGAGACGTGCTAG,-0.268 z-score
GCCGGTATCGGGTTTCGGGACGTGCTA,3.25 z-score
GACGGTATACTTTTCCTGACGTGCTAG,1.16 z-score
TTAGGTGTCGGGTTTCGGTTAGTGCTA,3.6 z-score
TCACTTTACACACATCATACTGTGCTA,1.34 z-score
TTAGGACTGCTTCTCCTTCAGTGCTAG,-0.33 z-score
TTATGACTGCTTTTCCTTTAGTGCTAG,0.868 z-score
AAACCATCCTGTATGGATGTGTGCTAG,0.783 z-score
TTAGAACTGGGGTTTCGATGAGTGCTA,0.119 z-score
TTAGGTCTCCTTATGCTTTAGTGCTAG,1.7 z-score
GACGAGATCAGTCTCGAGACGTGCTAG,0.528 z-score
CCACATATGCTTTTTAGAAAGTGCTAG,0.93 z-score
TTAGGTCTCGGGTTTCGGTTAGTGCTA,2.57 z-score
TTAGGAATCGGTCTCGGTTAGTGCTAG,1.35 z-score
GACGATATTAGACTGGAGACGTGCTAG,-0.0684 z-score
GACGTACTGGGGTTTCGAGACGTGCTA,0.118 z-score
GACGATTTCAGTGTCGAGACGTGCTAG,1.47 z-score
GACGATATCGCGTTTCGAGACGTGCTA,0.781 z-score
GACGAACAGAGACTGGAGACGTGCTAG,-0.172 z-score
GACGAATTGAGTTTCGAGACGTGCTAG,1.54 z-score
GAAGGTTTCGGGTATCGGGACGTGCTA,4.17 z-score
TAAGGTATCGGTATCGGTTAGTGCTAG,5.32 z-score

# Block 2
# Target: CCNA1, cyclin fold, Cln2 fusion (human)
# Method: yeast growth competition, sequencing
# Medium: yeast
# Notes: weak parent motif
# Reference: not given
# Reading: higher = stronger binding
# Parent: PKN2 docking peptide (human); DSTVTKLDFDLEP
Change,normalised enrichment score
D8A,-0.296
D1A,0.026
D10A,-0.479
F9A,0.0713
K6A,-0.115
L7A,-0.105

# Block 3
# Target: Sal-like protein 4, full length isoform A (SALL4, Homo sapiens, UniProt Q9UJQ4, residues 1-1053)
# UniProt Q9UJQ4, sequence (whole entry, looked up): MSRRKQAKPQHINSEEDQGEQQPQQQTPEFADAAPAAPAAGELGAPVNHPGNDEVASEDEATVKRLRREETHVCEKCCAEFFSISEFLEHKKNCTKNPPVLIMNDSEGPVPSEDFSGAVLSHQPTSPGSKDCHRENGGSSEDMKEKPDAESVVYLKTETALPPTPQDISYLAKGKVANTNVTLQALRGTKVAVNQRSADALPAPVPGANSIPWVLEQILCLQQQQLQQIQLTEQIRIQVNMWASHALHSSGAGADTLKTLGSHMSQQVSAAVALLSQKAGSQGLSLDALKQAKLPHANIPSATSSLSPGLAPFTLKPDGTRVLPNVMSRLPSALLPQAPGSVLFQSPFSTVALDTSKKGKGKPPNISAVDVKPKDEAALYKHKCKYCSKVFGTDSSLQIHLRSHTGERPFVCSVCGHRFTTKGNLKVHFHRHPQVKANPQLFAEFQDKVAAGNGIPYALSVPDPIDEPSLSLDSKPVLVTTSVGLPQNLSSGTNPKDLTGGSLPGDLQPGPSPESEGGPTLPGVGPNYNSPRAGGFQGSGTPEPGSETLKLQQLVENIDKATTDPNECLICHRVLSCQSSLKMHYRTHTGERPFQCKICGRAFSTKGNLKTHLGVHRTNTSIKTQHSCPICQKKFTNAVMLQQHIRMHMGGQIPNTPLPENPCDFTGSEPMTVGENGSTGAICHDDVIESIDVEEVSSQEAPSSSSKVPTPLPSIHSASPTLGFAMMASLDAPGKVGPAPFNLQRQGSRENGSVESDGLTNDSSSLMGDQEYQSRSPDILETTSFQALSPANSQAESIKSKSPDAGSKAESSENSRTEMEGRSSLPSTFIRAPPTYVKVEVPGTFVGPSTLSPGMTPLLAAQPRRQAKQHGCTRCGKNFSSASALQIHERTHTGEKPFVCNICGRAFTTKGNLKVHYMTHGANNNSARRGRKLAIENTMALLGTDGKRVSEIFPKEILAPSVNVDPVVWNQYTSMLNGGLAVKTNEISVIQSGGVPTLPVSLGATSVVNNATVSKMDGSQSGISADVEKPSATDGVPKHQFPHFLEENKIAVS
# Method: universal PBM
# Molecule type: double-stranded DNA, one strand shown
# Medium: in vitro
# Tested at: 600 nM
# Notes: 8-mer, flanks averaged, mean of replicates
# Reading: higher = stronger binding
Sequence,E-score
GCGGTCAC,-0.258
ACACAGGA,0.0233
CTCGGCGA,-0.205
AAATGGTC,0.0978
GCAGAGCA,-0.1
AAACCACT,0.0411
ATTATGCC,0.272
ACCCGTCA,-0.258
GGTGGTTA,-0.0901
AACACCCG,-0.103
ACCACGAT,0.038
CGGCCTCC,-0.355
ACGCGACC,-0.271
GAGGTTGC,-0.302
AAGTGGAG,0.118
CGCCGAAG,-0.317

# Block 4
# Target: RING finger protein unkempt homolog, zinc fingers 1-6, GST-SBP tag (UNK, Homo sapiens, UniProt Q9C0B0, residues 30-357)
# Method: RNA Bind-n-Seq
# Molecule type: RNA
# Medium: in vitro
# Tested at: not given
# Notes: RNA with constant flanks, human and mouse sites, ends assumed
# Reference: input RNA pool
# Reading: higher = stronger binding
# Constant ends, left off below: GGGAGUUCUACAGUCCGACGAUC … CAACAGAGGAUUGAGCAUCA
# Target sequence (chain): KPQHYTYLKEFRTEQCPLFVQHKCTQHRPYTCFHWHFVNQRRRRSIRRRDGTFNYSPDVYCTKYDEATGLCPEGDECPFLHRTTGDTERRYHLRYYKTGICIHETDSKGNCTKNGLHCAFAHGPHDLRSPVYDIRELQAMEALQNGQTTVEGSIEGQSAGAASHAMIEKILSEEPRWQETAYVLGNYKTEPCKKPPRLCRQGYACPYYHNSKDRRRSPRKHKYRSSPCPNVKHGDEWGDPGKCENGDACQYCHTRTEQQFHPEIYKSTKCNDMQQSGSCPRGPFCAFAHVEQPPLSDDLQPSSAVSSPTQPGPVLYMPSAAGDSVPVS
Sequence,bound/input enrichment
UAUGACAGGGUUUCCAGAAAGGAAGCAAAGCCACAGAUUUGUCAACUGUCAGAGAGUUCAGAUUCUUCAGAUUCUGAAAGCGACUCAGAGAGUGAACCACAACAAGUUUCUGGCUACCAC,0.0711 ratio
GUGUUCCCCUUUGUGGGUGGGUUCCUAUGAUACUUAUUAUAGAACACAGUGGAUCCUUUUUGAAUGUUCGUGGAAGGGCCAGGAGUUCCUGUGAAACCAGGAUACUGCAGCUUUAUUAAA,0.244 ratio
UUCUUCGCCUUUGAGUGCCGCUACCUGGCUGUUCAGCUGUCUCCUGCCAUCCCUGUAUUUGCUGCCAUGCUCUUCCUUUUCUCCAUGGCUACACUGUUGAGGACCAGCUUCAGUGACCCU,0.242 ratio
ACUCAAAUUGAUGAUAGGAACAAAUUAACUGAACAUUUUAUCAUUACACUUCCUAUGUUACUAUCAAAGUAUUCUGCAGAUGCUGAGAAGGUAGCAAACUUGCUGCAAAUUCCACAGUAU,0.204 ratio
GAAGGUAUUCCUGACCAGAUGACGCUAAAGACCAUCUAUGAGAGAAUAUCAAAGAAUAUCCCAACAACUAAAGAUGUUGAGCCACUUCUUGAAAUUGAUGGAGAUAUAAGAAAUUUUGAA,0.158 ratio
AUGACGACAAGAAGGAUAUCAAAUCAAUUACUAGGUCAAGAUCUAGCAAUAAUGACGAUGAGGACCUGACACCAGAGCAGAAGGCAGAGCGUGAGAAGGAGCGGAGGAUGGCCAACAAUG,0.245 ratio
CGUUCAAUGUGUAUGUAACUGAGUGCUGGAAUCCCAGAAGUGCAUGUUUGUACUCGUGUCCGCCUGAAGCUUGGGGUAAAUGGAAUCCUCCCUGAGGUUGUUUGGUGAGGCCUUGCGCUU,0.185 ratio
AAGUGUGAAUGCAGAAGCAAAUAUUGUCUGCCCUGUUAAACUUGGUGCCCAUUAACAGUGUUUACACUGUUCAUCGUGCCUGUUAAUGUAGUUUUAGUUACUGGAGCUUUUUUAAGACUA,0.387 ratio
UGUAGUUCUGAAUACACAGGUUUUGUGUGUAUUUACUCUAUGUAUUAAAUUAUUAUUGCCCUUAGUUUAAAGUAAGGAUUACAAUUGGAUUUAAGUAGAUCACUGAAUGUUAUUGUUUAU,2.84 ratio
GUGCAGGAUCCGUGCUUUGCCCAAGGAGAUGGUCUCAUUAAGGGUGAACCCUUUGUCCCUCGUGGAAAUCAUUCUUCAUGUAGUUAGACAGAUGACUGAUCCUAAUGUGGCUCUUACUUU,0.391 ratio
CUUGGCCAGGAGGGGGAUGCCAGCUAUCUUGCUUCUGAAAUAUCUACCUGGGAUGGAGUGAUUGUGACACCCUCAGAAAAGGCUUAUGAGAAGCCACCUGAGAAGAAGGAGGGGGAGGAA,0.252 ratio

# Block 5
# Target: RNA binding protein fox-1 homolog 2, RRM domain, GST-SBP tag (RBFOX2, Homo sapiens, UniProt O43251-10, residues 100-194)
# Method: RNA Bind-n-Seq
# Molecule type: RNA
# Medium: in vitro
# Tested at: 365 nM
# Notes: natural RNA segment, single round, ends assumed
# Reference: no-protein control
# Reading: higher = stronger binding
# Constant ends, left off below: GGGAGUUCUACAGUCCGACGAUC … UGGAAUUCUCGGGUGCCAA
Sequence,RBNS enrichment (R)
UGUUCAUUUUACUGAUGCACUUUAGUUUUUGGUCUGUUACCUGUUUUCCAGAAAUUUGUGGCCUUUUAGGCGGGAGUUAGGCGACCAAACCAGUGAGAGCCCCAAUCCCU,0.442
CGUUUAUAACAGUCACAUUUAAUUAUAAUGUACAUCAAAGGCAGAAUUUCAGAAUGGUUUCUUAAAUUUCCUUGGGAACCGUUUCCACAUAUCAGUUAUAGACAAAGGCC,0.414
CUGGUGGGCUGAGGGAAGGUUUGUAGCUGCGUUUAGUGGUAUACAUCUUUAGUCCCAGCAUAGGCAGGUGAAUCUCGAGUUUGAAGCUAGCCUGGUCUAAAAAGGAAGUU,0.413
UAAGAAGUAAAAACUUAUUUGGAAGGCAGAGACAGACGGCAGCAGCUCACUUAGGCAGGAAUGGUCUUACCUUUUAAAAGCUUGUGGGAAACUGAAUUUGAAAUGACAAA,0.39
AGGUGAAUCUCUGGGUUAGGACCAGUAUGGUUUGCAUAGCAAGUUCCAGAGUACACAGUGAAACACUUGUCUUUUUUAAAAAACAAAAGCUAGCUACGAAUUUUUAAAGA,0.886
CUGAGGGAUGGUCCUGACAGUAAACAGCGGGAAGACACCGGGAGCAUUGUAAUCGCUUGGUUAAUUGUCCGACAUUGGUCCAGGAACAACUUGUCUUUUCAGCCGGCUGA,0.501
AUUUUUAAGAGCUGAAGCUCCCUCUUGCCCUUCUUGUCUACUCCUCACUGCCAGUUGGGGCCUAGGCUUAGUCCUGGGCAAAUGUCCAUGAUCUUGCUGCUGUAGGAAGC,0.409
ACUCUGGUUACACGGAUCACCUUUGUUGUGCUAGAAUGGAAGCUACAUUUCUGGAAUGUGUGUACCCUGCUGGUGACUUUGCAGCCCCGCCUUGCCUGACCUCCCACCCU,2.54
GUUACUUUUUAUAAUGUGAAAUAAUGAAUAAUGAAUUUACUCAAAAUAAAACAUAGGUUAAUGAGAUACCUGUGUUUGUGAAAAAAAGUCUUAAAUACUUUCCUGCAGUU,0.496
UAUUCCCUGACGGAGCUGUUAUGUGCCGCUCUAGCGAAGGCCCCAGCCGGGAUGCUAGGCCUAAUUGUUCAGCGUGGAGAUGGCAACUCACGUGGUGCCCUAGGUGCAGC,0.886
AUUUUUAUAAUUAUGAUGUAACUCUAUCUUAUCCUUAAAACAUUUAAAAUAAACCCUUUAUGUGCAACUCCUGACUGUAAAGUUUGUGCUGAUGAGCAACAUGUGAUGUG,0.567
ACCAACCCACCCUGUAGAUUGUCAGCUUUUUGUUUGAGAGAUGCCUGGUCUCACAGUUACAUGUAUCAGAGUGUGUGUAAGUUGUCUGUGUUAGAAAGGUUGGGGUGGGG,1.16
